Assay results of several laboratories.
Parts stem from different laboratories: compare values within a part only. ± gives the spread as reported.

Sample 1 — organism: SARS-CoV-2 Wuhan spike VSV pseudovirus; observed: pseudovirus entry; tested at: 10 µM
Compound	inhibition [%]
Clc1cc2c(c3ncccc13)OCN(Cc1cccnc1)C2	62
CCc1ccc(C2C3=C(COC3=O)Nc3c2c(=O)n(C)c(=O)n3C)cc1 (centres unmarked)	92
CN(CC1CCCO1)C(=O)c1coc(COc2ccc3c(c2)OCO3)n1 (centres unmarked)	100
OC(CN1CCc2ccccc2C1)c1cc(F)ccc1F (centres unmarked)	100
CN(C)C(=O)N1CCC(C(=O)N2CCOC(Cc3cccc4ccccc34)C2)CC1 (centres unmarked)	59
Cc1ccc(N2N=C(C(=O)NCc3ccccc3F)S(=O)(=O)c3cccnc32)cc1	82
O=S(=O)(c1ccc(SCc2cc3c(cc2Br)OCO3)nc1)N1CCCC1	59

Single results of other studies
rep papain-like protease: Replicase polyprotein 1ab, papain-like protease (rep, Severe acute respiratory syndrome coronavirus 2, UniProt P0DTD1)
rep nsp14: Replicase polyprotein 1ab, nsp14 (rep, Severe acute respiratory syndrome coronavirus 2, UniProt P0DTD1)
rep nsp12 RdRp: Replicase polyprotein 1ab, nsp12 RdRp (rep, Severe acute respiratory syndrome coronavirus 2, UniProt P0DTD1)
Structure (SMILES)	target	assay	conditions	how to read	endpoint	value
O=c1oc(Cl)c(Cl)c2ccccc12	rep papain-like protease		concentration not given, C111S mutant	baseline: positive control	activity	21.1%
O=C(NC1CCN(c2ncnc3[nH]cnc23)CC1)c1cccc(S(=O)(=O)N2CCCCC2)c1	rep nsp14	NSP14 enzyme activity, inhibitor	0.1953 µM		inhibition	1.4%
CC(C)(C)C(=O)Oc1ccc(S(=O)(=O)Nc2ccccc2C(=O)NCC(=O)O)cc1	rep papain-like protease		concentration not given, C111S mutant	baseline: positive control	activity	14.1%
N#CCC1(n2cc(-c3ncnc4[nH]ccc34)cn2)CN(C2CCN(C(=O)c3ccnc(C(F)(F)F)c3F)CC2)C1	rep nsp12 RdRp	binding, biolayer interferometry	concentration not given		BLI response	-0.03 nm
Cc1ccc(NS(=O)(=O)c2cccc(C(=O)NC3CCN(c4ncnc5[nH]cnc45)CC3)c2)cc1	rep nsp14		3.125 µM		inhibition	66%
CC1(C)O[C@H]2CC(=O)OC[C@]23[C@H]2CC[C@@]4(C)[C@H](c5ccoc5)OC(=O)[C@H]5O[C@]54[C@]2(C)C(=O)C[C@@H]13	rep nsp12 RdRp	binding, biolayer interferometry	concentration not given		BLI response	0 nm
CCC(CC)[C@H](NC(C)=O)[C@@H]1[C@H](O)[C@@H](C(=O)O)C[C@H]1N=C(N)N	neuraminidase (Influenza B virus, UniProt C0LT34, I221L)				IC50	37.7 ± 1.6 nM

A few entries again (sample 1):
Compound	inhibition [%]
OC(CN1CCc2ccccc2C1)c1cc(F)ccc1F (centres unmarked)	100
